# Published values gathered from unrelated publications.
# A part holds a random share of what one study measured.

# Block 1 — technique: protein-binding microarray; molecule type: double-stranded DNA, one strand shown; sample: in vitro; tested at: 0.8 µM; setting: whole 60-bp probe, no competitor; reading: higher = stronger binding; constant ends, left off below: … GTCTTGATTCGCTTGACGCTGCTG
# Target: Centromere-binding protein 1, full length, N-terminal tag (CBF1, Saccharomyces cerevisiae, UniProt P17106, residues 1-351)
# Sequence of UniProt P17106 (whole entry, looked up): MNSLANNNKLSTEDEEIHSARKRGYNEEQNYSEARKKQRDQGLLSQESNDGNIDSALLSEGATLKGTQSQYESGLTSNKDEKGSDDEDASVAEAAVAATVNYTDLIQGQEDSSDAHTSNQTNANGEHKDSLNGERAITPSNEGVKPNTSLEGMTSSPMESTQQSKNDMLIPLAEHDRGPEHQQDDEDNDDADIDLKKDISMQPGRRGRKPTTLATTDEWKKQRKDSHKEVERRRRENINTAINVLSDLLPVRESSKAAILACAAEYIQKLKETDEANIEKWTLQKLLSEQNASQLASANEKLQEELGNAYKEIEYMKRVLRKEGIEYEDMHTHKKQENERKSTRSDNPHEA
Strand,fluorescence intensity [a.u.]
CTAGATATAACTCATCACATGTTAAAGAACCCATTC,2780
CTACATACTTACCATCACCTCCCTCGACAAATATTC,528
GAACAAACTTCTGGTCACATGAGTTGAACAGAATAG,3230
TGTACGAAGCTATCTAAGGTGACTATAGTAGTTAGG,502
CTACTGGCGGTAAGTCACCTTTAGTTATCCTTCTTC,473
CTAATATTATATTATCACATGCGGTGTAAGAAGTTC,1550
GAACTTCGACAGCTCACCGTGCCCCTGTCCTTTTAG,494
CCTAACTACTATATTGTCACCAGATAGCTTCGTACA,541
CTAGTCACCAGTCATCATGAAAAGTGCACTGCATTC,508
GAATTCCATTATCATCACGTGTAGCGTTTCTGCTAG,7340
CTATTACCCCGTAACCACGAGTTGCGGTGTTTTTTC,508
GAAAACTTGTTATTCAGCGTGAAGAACGATATTTAG,536
GAATCTGTGGCCACCCATCTCCTGTATATAAGATAG,509
GAACTAAAAGGGAAACACGCCACACACCGCATATAG,566
CTAGTCGACATGGATGACGAAGAATGGAGATCTTTC,508
CTATTTGGTAGTTTCCACGTTGGCCGCCTCTTCTTC,502
CTAGCTTTTTGGACGCACGTTTTAGTTTCACTGTTC,700
CTAAAATTAAGGTATCACGAGACACATGGAATATTC,2840
GAAAAATGAAAAGATCATGAGAAAAAAACAAAATAG,571
CTAGAAGACCCACATCAGGCGGCAGAAATGGTTTTC,508
GAACGTTCTCTTTGTCACCCGCTTGATGTAAAATAG,554
GAACGGTATACTCGTCATGAGACACGAAAAGTGTAG,1090
CTACCTTACATCCGTCACGAAACTCTTATGGCTTTC,542
TGTACGAAGCTATTTGGCGTGCCTATAGTAGTTAGG,508
GAAGATTGGCTGAGTCACCTTCATCGCGTCCACTAG,526

# Block 2 — technique: RNA Bind-n-Seq; molecule type: RNA; sample: in vitro; tested at: not given; reference: input RNA pool; reading: higher = stronger binding
# Target: RING finger protein unkempt homolog, zinc fingers 1-6, GST-SBP tag (UNK, Homo sapiens, UniProt Q9C0B0, residues 30-357)
# Setting: RNA with constant flanks, human and mouse sites, ends assumed
# Constant ends, left off below: GGGAGUUCUACAGUCCGACGAUC … CAACAGAGGAUUGAGCAUCA
# Residues (chain): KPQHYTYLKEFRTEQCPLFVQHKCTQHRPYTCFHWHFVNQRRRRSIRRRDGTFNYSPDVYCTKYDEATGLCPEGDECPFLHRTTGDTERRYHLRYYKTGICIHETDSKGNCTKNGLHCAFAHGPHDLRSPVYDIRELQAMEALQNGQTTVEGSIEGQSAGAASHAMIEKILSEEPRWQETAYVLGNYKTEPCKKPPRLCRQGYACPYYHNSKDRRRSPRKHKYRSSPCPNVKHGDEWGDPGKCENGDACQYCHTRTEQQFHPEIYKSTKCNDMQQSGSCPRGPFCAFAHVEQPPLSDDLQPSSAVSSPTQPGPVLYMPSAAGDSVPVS
Strand,bound/input enrichment [ratio]
CGGAGCCCUCCUCUCCCACAGGCCCAAGAUAUAACCCACCAGUGCCUUUUGUCUUCCUGUCAGCUCUGUCAAUCACGCCUGUCCUCUCACGCCCACACCAAGUGCCCAAAGUGGGGAGGG,0.512
ACCCAACCAGCAGAAAACCGGUCUCUGAGGUUCCACCAAAAUAUGGAACUUGAUUUUGGACACUUUGACGAAAGAGAUAAGACAUCCAGGAACAUGCGAGGCUCCCGGAUGAAUGGGUUG,0.261
CUGAUCAUCAAUGGUCCCAUAAAGUCAUUCUGCUACCGCCGGCUGCAGUACCUGAGCUCCAAAUUCCAGAUGCACGUUUUGCUCAAUGAGAUGAAGGAGCUCGCUGCUCAGAAGAAAGUG,0.0929
AAGAUAAAACAAGAAAUCCUCCCUGAAGAACGAAUGAAUGGACAAGAAGUGUUUUAUCUGACUUACACCCCUGAAGAUGUCGAAGGGAACGUUCAGCUGGAAACUGGAGAUAAAAUAAAC,0.203
GAAAAAAACUCGAAACAAUCCCAAUGACAAUUGUGGUAACAACUCUUUAUUUUAUGGAUAUUUGUUCAUAAUGUUAAAACAAACGAAGACUUCAUAUUUAAUAUAUUUUUUACAUAACCU,1.57
CACCACCCCAGUCCGGAUCAUUUCUGGCCCCGCUUCCCGGACGCUCUGCGCCCCUUCGUUCCUUGGGAUCAAUUGGAAAACGAGGAUUCCAGCGUGCACAUUUCCCCCCGGCAGAAGCGA,0.215
GGAGGAGGAGCCGCGGGCAACGAGGUUUCUCUGUCAUUCACAGAAAAAUGAAUCAUUUAAACCUUUGGAGGACUCAGUUAUCACAAUACUUCUCUACUACCAACUAAGAUUUAUGAUAGU,0.479
GAAUACUCCAAAUCCUAAAUUACACUGAGAUCUAGACCUUCAUUUGGCAGGGUCAGGCCAUUGGAUGGUGUUGCUGUAUUGUCUUGUCGUGUUUUUAAAAUCUGUGCACUUUGUCCAAAG,0.238
GGAGCAUUGCCCCCUGACCUCAGCUACAUCGUGCGAGCUAGGCAUGGUGGUGAGGACUACGUCUUCUCCCUGCUCACGGGCUACUGCGAGCCACCCACCGGGGUGUCACUGCGGGAAGGU,1.25
AAGUUGCAACACAUCAACCCAUUAUUGCCUGCCUGCCUUAACAAAGAGGAGAGCAAAACCUUUGUUUCAAGUUUCAUGUCCGAAUUGUCUCCAGUCAGAGCAGAACUUCUUGGGUUCCUU,0.184
UAAUAAAACCAUUUUAUCUUUAAAAUAGUAAGUAGAAAUCUAAAUAAAUUUUAUGAGUAGGCAGUAACUUUUCUGUUUAGUGAGUGUACUUGCUUUGCUCUUAUCAUUGGUCUUACCUUU,5.43

# Block 3 — target: human cyclin A2; technique: competitive growth deep sequencing; molecule type: peptide; organism: Saccharomyces cerevisiae; strain: cyclin A2-Cln2 fusion strain; setting: peptide tiling library; reading: direction not given
Sequence,enrichment score
SNFFDVIKQLFSDEKN,-0.0489
EPRNLLSLFEDTLDPT,1.25
ATNSSHTDAHEILVSD,0.805
EHCRVLFLDHVMYTIH,-0.701
NSMKELNFSHLPSNSV,0.171
RQVRRDLFAF,-0.517
VKRLNFRSEEME,0.413
NESHLDKEHDAVEVAD,0.311
ESSQLTVQAEFDMSAI,0.486
QNPCGSKACRRLFGPV,1.4
HPESPPRKRLKSKGSD,5.45
DKYDEGLYRFNSLNDL,0.596
AEHPKPSACRNLFGPV,2.35
DVSERGYVILPNDYFE,0.41

# Block 4 — technique: RNA Bind-n-Seq; molecule type: RNA; sample: in vitro; tested at: 200 nM; setting: whole 134-nt RNA, ends assumed; added: 150 mM LiCl; reference: input library; reading: higher = stronger binding; library: 7-deaza-guanosine replaces G
# Target: Fragile X messenger ribonucleoprotein 1, C-terminal low-complexity region (Fmr1, Mus musculus, UniProt P35922)
# Constant ends, left off below: GGGAGUUCUACAGUCCGACGAUC … UGGAAUUCUCGGGUGUCAAGG
Strand,log2 enrichment
UGGGAGGUGGAUUUUGUUUAUUUUUUUAGCUCAUUUCCAGGGGUGGGAAUUUUUUUUUAAUAUGUGUCAUGAAUAAAGGUGUUUUUGAAA,0.608
UCAAGUCCUGUGCUACACAUCGUAUGUACCGAAUCGGAGGUUUGGAAAAAAAGGAAAGUAUUAUGUUACGCCGUUCGGAUCUGCACUUCC,-1.66
UAACUUUAGAGGAGGAUCUGAUGGAUAUGGCAGUGGACGUGGAUUUGGGGAUGGCUAUAAUGGGUAUGGAGGAGGACCUGAAGGUGGCAA,-0.106
GUCCUGUGCUACACAUCGUAUGUACCGAAUCGGGGUUUUUUUGGGGAGGGGUUUGGGGAAAGUAUUAUGUUACGCCGUUCGGAUCUGCAC,-0.266
CACAGACAACACGCACCCACACAGACACAGAGGGAAGGGGUUGGGAUGGGGACAGGGUGCACAGCAGGGCGGGGUAGGACCCCAGCCCUU,-0.0675
UGGGAGGUGGAUUUUGUUUAUUUUUUUAGCUCAUUUCCAGGGGUGGGAAUUUUUUUUUAAUAUGUGUCGUGAAUAAAGUUGUUUUUGAAA,0.428
AGUCCUGUGCUACACAUCGUAUGUACCGAAUCGGGAAAAGGGAAAAGGGAAAAGGGGAAAGUAUUAUGUUACGCCGUUCGGAUCUGCACU,-0.661
AGAGAAUAAGAAUUCAGCUGACAGGAGGCCUCUAUCCUGUCCCUCCACCCCACCCUCCACCUCAAUCCCCUCCCAUCUUCCCCAGACCUA,1.45
CACAGACAACAAAAACCCACACAGACACAGAGGGAAGGGGUUGGGAUGGGGACAGGGUGCACAGCAGGGCGGGGUAGGACCCCAGCCCCU,0.543
UCCUGUGCUACACAUCGUAUGUACCGAAUCGGGGAAAAAAGGGAAAAAAGGAAAAAAGGAAAGUAUUAUGUUACGCCGUUCGGAUCUGCA,0.11
ACCAUGCAGGUGGGCAUCUUUGGGAAGUGGGGCAAGGGGGGGAUAGGGAGGGGGGUAACACUUUGGGAACAGGGGGUCCCAGGUCGUUUC,1.34

# Block 5 — technique: protein binding microarray; molecule type: double-stranded DNA, one strand shown; sample: in vitro; tested at: not given; reference: not given; reading: higher = stronger binding
# Target: Histone acetyltransferase KAT6A, winged helix 1, GST fusion (KAT6A, Homo sapiens, UniProt Q92794, residues 1-85)
# Setting: 8-mer, flanks averaged, mean of 2 arrays, mostly near background
# Residues (chain): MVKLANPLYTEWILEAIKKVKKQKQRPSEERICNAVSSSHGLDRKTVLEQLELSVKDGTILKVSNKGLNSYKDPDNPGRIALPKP
Strand,E-score
ACACGAAA,0.0751
AAAACTAA,-0.153
ATCTCATG,-0.0825
AGCTACCA,-0.205
AAAGTTAT,-0.0536
GACACACC,-0.0334
GTTCAAAC,0.00766
AGTCGGTA,-0.0499
CATGGTCA,-0.0113
AGCCTAAG,-0.244
TACTCCGA,0.00763
AATCCACA,-0.156
AGAGCGCT,0.251
GTATCGTA,-0.00769
TAATATGA,-0.00236
CACATGCC,0.0143
AGAATGCT,-0.155
ACAATGTC,-0.0305
AATCCGTA,0.188
CCCTTGCG,0.0487
AGTTAAGA,-0.168
ACTCGCTA,-0.0186
AGGCCACA,-0.126
CCCTCCAG,0.0476
AGTCACTG,-0.0282

# For quick reference, copied from above (block 5):
Strand,E-score
AAAACTAA,-0.153
ATCTCATG,-0.0825
AGCTACCA,-0.205
AAAGTTAT,-0.0536
GACACACC,-0.0334
GTTCAAAC,0.00766
AGTCGGTA,-0.0499
CATGGTCA,-0.0113
AGCCTAAG,-0.244
TACTCCGA,0.00763
AATCCACA,-0.156
